Measured values pooled from the literature.
A part holds a random share of what one study measured.
UniProt P29320, sequence (whole entry, looked up): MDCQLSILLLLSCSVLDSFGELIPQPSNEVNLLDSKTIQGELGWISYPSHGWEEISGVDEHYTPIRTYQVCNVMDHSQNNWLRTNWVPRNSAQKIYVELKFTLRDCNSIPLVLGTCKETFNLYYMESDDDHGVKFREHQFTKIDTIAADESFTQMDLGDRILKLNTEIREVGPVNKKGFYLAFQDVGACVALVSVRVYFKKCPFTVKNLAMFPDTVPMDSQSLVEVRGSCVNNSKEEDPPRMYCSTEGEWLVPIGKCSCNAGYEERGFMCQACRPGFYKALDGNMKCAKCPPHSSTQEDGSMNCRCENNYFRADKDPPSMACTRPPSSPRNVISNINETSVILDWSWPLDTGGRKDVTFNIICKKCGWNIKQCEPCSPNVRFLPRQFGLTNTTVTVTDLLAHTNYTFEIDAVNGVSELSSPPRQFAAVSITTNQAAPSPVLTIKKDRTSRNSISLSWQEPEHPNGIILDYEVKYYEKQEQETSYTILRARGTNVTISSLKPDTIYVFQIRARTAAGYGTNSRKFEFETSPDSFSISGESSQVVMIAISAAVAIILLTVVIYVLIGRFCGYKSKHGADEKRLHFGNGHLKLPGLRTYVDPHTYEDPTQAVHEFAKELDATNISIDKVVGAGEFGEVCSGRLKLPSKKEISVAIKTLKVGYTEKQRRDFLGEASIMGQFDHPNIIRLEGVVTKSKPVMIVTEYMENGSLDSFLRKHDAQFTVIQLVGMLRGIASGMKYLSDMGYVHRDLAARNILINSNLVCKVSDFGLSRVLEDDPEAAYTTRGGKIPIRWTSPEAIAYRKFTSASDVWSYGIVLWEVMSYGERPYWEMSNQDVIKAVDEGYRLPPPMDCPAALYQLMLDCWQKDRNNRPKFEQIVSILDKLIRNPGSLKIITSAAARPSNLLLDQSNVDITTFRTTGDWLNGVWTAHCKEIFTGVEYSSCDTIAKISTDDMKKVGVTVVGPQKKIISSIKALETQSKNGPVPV
UniProt Q9Y4K4, sequence (whole entry, looked up): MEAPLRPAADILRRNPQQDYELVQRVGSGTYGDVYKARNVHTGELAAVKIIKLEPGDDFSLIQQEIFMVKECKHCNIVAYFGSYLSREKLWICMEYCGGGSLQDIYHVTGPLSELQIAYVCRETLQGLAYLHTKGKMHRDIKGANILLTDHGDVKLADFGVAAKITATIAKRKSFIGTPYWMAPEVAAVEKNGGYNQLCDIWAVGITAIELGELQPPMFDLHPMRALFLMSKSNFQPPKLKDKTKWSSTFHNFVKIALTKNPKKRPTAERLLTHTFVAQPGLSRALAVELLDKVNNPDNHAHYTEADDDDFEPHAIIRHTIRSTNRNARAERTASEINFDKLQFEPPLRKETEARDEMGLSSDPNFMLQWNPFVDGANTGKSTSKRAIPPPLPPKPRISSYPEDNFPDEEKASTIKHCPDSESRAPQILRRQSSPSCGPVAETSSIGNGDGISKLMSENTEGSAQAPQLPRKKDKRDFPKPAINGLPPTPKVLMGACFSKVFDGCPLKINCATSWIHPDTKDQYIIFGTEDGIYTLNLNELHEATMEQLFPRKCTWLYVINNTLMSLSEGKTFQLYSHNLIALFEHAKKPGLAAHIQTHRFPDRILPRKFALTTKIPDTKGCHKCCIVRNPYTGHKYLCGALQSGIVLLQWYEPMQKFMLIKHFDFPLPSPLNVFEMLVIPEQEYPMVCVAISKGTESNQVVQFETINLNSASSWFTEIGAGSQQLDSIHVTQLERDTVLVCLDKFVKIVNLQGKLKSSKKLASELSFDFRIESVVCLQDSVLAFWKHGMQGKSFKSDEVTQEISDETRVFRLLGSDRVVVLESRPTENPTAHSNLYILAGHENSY
UniProt P00519, sequence (whole entry, unmodified, looked up): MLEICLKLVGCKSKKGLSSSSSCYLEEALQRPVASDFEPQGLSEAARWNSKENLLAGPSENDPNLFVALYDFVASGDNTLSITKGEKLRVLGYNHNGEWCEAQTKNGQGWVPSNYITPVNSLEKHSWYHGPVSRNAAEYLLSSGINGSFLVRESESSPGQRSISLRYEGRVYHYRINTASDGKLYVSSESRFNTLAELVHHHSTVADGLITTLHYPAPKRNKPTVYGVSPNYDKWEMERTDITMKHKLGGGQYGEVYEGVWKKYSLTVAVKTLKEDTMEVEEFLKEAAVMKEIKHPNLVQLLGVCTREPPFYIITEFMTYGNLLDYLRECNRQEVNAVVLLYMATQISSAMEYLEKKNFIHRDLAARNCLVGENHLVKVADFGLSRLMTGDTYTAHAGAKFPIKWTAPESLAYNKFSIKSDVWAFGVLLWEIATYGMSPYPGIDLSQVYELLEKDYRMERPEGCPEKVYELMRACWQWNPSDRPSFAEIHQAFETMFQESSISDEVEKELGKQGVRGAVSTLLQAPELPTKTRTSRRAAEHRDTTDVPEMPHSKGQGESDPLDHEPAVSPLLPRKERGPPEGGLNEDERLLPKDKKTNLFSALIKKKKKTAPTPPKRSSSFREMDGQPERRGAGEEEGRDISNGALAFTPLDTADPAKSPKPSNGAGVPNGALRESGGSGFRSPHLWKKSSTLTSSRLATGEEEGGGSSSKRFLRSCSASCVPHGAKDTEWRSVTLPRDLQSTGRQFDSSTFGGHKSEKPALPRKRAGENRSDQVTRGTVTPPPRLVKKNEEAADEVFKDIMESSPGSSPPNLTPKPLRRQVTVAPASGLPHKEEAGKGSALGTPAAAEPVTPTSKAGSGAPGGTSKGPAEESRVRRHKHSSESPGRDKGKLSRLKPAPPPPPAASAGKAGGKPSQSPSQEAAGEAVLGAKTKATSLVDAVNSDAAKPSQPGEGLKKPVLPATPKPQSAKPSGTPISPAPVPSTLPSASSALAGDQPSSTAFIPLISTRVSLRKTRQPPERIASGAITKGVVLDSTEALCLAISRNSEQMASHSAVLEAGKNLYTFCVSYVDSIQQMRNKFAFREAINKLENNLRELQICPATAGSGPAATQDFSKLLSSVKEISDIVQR
UniProt P42681, sequence (whole entry, looked up): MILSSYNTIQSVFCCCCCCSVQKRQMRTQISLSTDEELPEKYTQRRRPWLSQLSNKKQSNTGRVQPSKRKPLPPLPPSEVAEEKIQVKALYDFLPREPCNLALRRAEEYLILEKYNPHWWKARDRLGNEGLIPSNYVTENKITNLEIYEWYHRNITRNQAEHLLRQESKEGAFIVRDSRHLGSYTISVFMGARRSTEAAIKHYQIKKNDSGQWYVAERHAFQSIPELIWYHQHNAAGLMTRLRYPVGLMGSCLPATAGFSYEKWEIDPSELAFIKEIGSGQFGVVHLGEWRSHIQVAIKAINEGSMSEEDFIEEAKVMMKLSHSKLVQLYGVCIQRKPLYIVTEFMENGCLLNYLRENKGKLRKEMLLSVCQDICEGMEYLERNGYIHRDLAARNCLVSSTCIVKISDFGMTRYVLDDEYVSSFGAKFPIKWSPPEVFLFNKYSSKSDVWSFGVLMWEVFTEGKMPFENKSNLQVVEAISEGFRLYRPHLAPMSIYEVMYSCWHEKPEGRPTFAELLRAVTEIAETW

Study 1 — species: human; sample: microsomes or S9; tested at: 2 µM; time: 0.5 h; endpoint: remaining compound
COc1ccc(Cl)cc1NC(=O)c1[nH]c(C)c(C(C)=O)c1C: 71.7%
[O-][S+]1CCN(c2ncnc3sccc23)CC1: > 100%
CCCc1cc(=O)n2ncc(-c3ccc(Cl)cc3)c2[nH]1: 89.5%
COc1ccc(CCc2nc(C)c(O)c(-c3nnn[nH]3)c2C(=O)O)cc1: 45%
Cn1nc(Br)nc1N1CCC(O)CC1: 83.4%
Cc1cc(C)c(C2=C(NC(=O)C(C)C)C3(CCCC3)OC2=O)c(C)c1: 0.406%
CC(C)COc1cc(=O)n2c(c1C(=O)NCC1CCCCC1)CCCCC2: 0.442%

Study 2 — observed: enzyme activity; mode: inhibitor; tested at: 0.5 µM; relative to: control; endpoint: remaining activity
Target: Vascular endothelial growth factor receptor 1 (FLT1, Homo sapiens, UniProt P17948)
UniProt P17948, sequence (whole entry, looked up): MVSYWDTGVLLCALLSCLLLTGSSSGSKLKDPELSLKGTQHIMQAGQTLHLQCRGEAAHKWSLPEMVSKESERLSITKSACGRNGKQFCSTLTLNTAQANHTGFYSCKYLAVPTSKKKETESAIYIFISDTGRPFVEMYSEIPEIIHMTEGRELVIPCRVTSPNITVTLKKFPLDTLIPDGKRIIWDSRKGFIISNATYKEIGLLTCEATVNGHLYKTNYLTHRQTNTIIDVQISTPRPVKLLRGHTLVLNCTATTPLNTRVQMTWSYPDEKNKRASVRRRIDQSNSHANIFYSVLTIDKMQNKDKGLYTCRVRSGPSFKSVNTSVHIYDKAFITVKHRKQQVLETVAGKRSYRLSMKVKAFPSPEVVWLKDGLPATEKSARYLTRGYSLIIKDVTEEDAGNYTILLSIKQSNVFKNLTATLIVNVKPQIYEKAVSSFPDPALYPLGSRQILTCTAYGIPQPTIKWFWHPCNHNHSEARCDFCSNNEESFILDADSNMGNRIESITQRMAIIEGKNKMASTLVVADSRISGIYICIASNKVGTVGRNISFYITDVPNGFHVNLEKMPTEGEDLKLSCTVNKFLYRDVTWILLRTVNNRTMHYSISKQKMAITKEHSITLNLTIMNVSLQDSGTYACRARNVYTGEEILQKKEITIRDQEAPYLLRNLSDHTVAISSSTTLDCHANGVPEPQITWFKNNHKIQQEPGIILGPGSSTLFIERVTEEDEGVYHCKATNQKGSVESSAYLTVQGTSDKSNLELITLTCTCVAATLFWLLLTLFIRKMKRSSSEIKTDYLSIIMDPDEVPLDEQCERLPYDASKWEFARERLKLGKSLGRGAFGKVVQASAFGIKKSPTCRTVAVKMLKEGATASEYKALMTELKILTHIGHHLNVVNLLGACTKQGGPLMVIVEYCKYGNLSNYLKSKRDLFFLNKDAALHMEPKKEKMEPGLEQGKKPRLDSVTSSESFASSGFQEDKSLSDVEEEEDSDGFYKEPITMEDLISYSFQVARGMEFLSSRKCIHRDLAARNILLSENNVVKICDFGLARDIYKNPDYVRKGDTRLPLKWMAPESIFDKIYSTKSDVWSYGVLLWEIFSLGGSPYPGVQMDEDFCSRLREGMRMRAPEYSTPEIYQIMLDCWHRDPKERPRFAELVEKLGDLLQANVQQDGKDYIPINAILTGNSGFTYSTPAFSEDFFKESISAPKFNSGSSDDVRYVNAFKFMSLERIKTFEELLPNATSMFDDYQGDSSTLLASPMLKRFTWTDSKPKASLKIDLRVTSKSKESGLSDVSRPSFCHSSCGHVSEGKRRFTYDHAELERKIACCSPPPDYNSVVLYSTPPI
Ic1cccc(CSc2nnc(-c3ccncc3)o2)c1: 91%
CCN(CC)CCNC(=O)c1c(C)[nH]c(/C=C2\C(=O)Nc3ccc(F)cc32)c1C: 58.7%
O=C1c2ccccc2-c2n[nH]c3cccc1c23: 87.3%
CCN(CC)C(=O)c1ccc(Nc2nc(OCC3CCCCC3)c3[nH]cnc3n2)cc1: 84%
O=c1cc(-c2cccc3c2Sc2ccccc2S3)oc(N2CCOCC2)c1: 90.8%
c1ccc(-c2[nH]ncc2-c2ccnc3ccccc23)nc1: 81.4%
C[C@@H]1CCN(C(=O)CC#N)C[C@@H]1N(C)c1ncnc2[nH]ccc12: 101%

Study 3 — method: competition with immobilised ligand; tested at: 1 µM; endpoint: remaining binding
SMILES: O=C(O)[C@H]1[C@H](Cn2nnc3ccccc3c2=O)CC[C@@H]1C(=O)c1ccc(OCCC2CCOCC2)cc1
PIK3CA (Homo sapiens, UniProt P42336, E545A); cell-free assay: 100%
EGFR (Homo sapiens, UniProt P00533); cell-free assay: 88%
TXK (Homo sapiens, UniProt P42681); binding: 100%
MAP4K5 (Homo sapiens, UniProt Q9Y4K4); cell-free assay: 92%
GRK7 (Homo sapiens, UniProt Q8WTQ7); cell-free assay: 100%
SBK3 (Homo sapiens, UniProt P0C264); cell-free assay: 100%
PIP4K2B (Homo sapiens, UniProt P78356); cell-free assay: 84%
MAP3K1 (Homo sapiens, UniProt Q13233); cell-free assay: 100%
EPHA3 (Homo sapiens, UniProt P29320); cell-free assay: 88%
MAST1 (Homo sapiens, UniProt Q9Y2H9); cell-free assay: 98%
PDPK1 (Homo sapiens, UniProt O15530); cell-free assay: 74%
PIM1 (Homo sapiens, UniProt P11309); cell-free assay: 95%
CDK16 (Homo sapiens, UniProt Q00536); cell-free assay: 98%
STK33 (Homo sapiens, UniProt Q9BYT3); cell-free assay: 98%
DAPK2 (Homo sapiens, UniProt Q9UIK4); cell-free assay: 100%
MAPK10 (Homo sapiens, UniProt P53779); cell-free assay: 83%
Tyrosine-protein kinase ABL1, non-phosphorylated (ABL1, Homo sapiens, UniProt P00519, F317I); binding: 86%
FGR (Homo sapiens, UniProt P09769); cell-free assay: 86%
MAP3K10 (Homo sapiens, UniProt Q02779); cell-free assay: 82%

Study 4 — mode: inhibitor; tested at: 10 µM; relative to: control; endpoint: remaining activity
Target: Diamine acetyltransferase 1 (Homo sapiens, UniProt P21673)
Target sequence (P21673 1-171): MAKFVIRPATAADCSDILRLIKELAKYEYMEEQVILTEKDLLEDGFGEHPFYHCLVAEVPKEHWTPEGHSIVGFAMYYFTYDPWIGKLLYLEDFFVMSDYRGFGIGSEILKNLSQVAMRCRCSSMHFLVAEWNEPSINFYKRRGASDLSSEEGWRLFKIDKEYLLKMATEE
CC(=O)CC/C=C(\C)CCC=C(C)C: 92.7%
CCCCCCCCCCCCCCCCCO: 103%
CCCCCCCC(=O)O: 85.3%
C=CCC(=NOS(=O)(=O)O)S[C@@H]1O[C@H](CO)[C@@H](O)[C@H](O)[C@H]1O (stereo in doubt): 99.5%
C=Cc1ccc(O)c(OC)c1: 96.9%
COc1cc2c(c(OC)c1OC)C(=O)c1c(cc(C)c(O)c1OC)C2=O: 103%

For quick reference, copied from above (study 4):
COc1cc2c(c(OC)c1OC)C(=O)c1c(cc(C)c(O)c1OC)C2=O: 103%
CCCCCCCC(=O)O: 85.3%
C=CCC(=NOS(=O)(=O)O)S[C@@H]1O[C@H](CO)[C@@H](O)[C@H](O)[C@H]1O (stereo in doubt): 99.5%
CCCCCCCCCCCCCCCCCO: 103%
C=Cc1ccc(O)c(OC)c1: 96.9%
CC(=O)CC/C=C(\C)CCC=C(C)C: 92.7%
